Experimental data collected from several papers.
Compare with care: the assays were run in different laboratories. ± gives the spread as reported.
TDP1: Tyrosyl-DNA phosphodiesterase 1 (TDP1, Homo sapiens, UniProt Q9NUW8)
Sequence of UniProt Q9NUW8 (whole entry, looked up): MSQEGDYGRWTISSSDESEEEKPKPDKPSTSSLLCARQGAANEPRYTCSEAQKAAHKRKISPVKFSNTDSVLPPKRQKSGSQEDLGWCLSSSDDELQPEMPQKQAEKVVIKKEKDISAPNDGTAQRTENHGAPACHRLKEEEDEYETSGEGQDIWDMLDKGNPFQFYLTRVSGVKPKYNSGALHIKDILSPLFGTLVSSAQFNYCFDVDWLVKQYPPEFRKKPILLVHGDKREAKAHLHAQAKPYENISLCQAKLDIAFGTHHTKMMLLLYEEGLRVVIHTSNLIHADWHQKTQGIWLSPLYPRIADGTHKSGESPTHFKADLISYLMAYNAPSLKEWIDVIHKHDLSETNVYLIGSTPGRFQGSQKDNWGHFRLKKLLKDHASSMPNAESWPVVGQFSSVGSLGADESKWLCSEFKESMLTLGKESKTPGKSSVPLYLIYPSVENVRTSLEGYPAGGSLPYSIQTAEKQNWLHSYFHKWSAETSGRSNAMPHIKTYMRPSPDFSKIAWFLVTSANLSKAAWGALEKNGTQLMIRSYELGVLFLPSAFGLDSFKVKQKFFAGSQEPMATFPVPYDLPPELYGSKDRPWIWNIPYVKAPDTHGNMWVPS
CCKAR: Cholecystokinin receptor type A (CCKAR, Homo sapiens, UniProt P32238)
Sequence of UniProt P32238 (whole entry, looked up): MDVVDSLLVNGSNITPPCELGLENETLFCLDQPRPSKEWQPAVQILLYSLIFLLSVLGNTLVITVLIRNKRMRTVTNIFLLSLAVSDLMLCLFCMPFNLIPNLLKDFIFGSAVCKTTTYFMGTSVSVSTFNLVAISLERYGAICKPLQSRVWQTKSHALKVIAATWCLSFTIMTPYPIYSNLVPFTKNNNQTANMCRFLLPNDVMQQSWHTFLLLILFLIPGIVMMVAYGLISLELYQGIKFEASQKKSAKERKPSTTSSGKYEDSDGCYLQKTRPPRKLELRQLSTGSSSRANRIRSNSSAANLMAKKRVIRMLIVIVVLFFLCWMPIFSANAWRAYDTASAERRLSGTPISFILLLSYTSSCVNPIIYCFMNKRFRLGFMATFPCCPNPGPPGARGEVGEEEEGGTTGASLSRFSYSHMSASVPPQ
Uncharacterized protein: Uncharacterized protein (Trypanosoma brucei brucei, UniProt Q386Q8)
PI4K2B: Phosphatidylinositol 4-kinase type 2-beta (PI4K2B, Homo sapiens, UniProt Q8TCG2)
OfChi-h: Chitinase (OfChi-h, Ostrinia furnacalis, UniProt Q4AE59)
Sequence of UniProt O75365 (whole entry, unmodified, looked up): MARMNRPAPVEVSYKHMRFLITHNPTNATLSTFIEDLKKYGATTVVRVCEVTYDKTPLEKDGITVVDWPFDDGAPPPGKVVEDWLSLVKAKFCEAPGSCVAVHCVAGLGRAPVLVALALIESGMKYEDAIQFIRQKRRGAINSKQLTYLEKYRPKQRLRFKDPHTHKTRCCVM
Sequence of UniProt P24530 (whole entry, looked up): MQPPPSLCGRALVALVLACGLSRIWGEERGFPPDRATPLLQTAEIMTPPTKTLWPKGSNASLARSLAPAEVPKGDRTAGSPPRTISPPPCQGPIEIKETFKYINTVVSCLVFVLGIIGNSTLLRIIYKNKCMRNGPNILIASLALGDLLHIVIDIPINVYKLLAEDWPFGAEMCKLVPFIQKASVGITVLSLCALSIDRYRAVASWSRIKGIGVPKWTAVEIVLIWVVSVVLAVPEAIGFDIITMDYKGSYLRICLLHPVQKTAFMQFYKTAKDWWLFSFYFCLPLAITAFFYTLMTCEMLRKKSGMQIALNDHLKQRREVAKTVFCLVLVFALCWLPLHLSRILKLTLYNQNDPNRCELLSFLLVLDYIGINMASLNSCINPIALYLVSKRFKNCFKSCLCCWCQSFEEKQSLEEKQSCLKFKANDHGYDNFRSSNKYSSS
Sequence of UniProt Q9NR22 (whole entry, looked up): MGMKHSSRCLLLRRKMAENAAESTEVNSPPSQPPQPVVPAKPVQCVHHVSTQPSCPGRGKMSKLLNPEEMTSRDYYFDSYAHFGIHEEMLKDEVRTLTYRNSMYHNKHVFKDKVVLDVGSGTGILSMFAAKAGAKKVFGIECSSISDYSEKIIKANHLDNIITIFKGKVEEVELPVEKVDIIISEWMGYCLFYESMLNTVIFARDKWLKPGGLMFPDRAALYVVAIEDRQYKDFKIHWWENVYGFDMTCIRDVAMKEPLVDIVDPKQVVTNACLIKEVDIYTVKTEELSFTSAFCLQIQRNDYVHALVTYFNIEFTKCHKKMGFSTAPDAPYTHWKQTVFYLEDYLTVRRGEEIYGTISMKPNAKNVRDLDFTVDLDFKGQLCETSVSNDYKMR
Sequence of UniProt O00443 (whole entry, looked up): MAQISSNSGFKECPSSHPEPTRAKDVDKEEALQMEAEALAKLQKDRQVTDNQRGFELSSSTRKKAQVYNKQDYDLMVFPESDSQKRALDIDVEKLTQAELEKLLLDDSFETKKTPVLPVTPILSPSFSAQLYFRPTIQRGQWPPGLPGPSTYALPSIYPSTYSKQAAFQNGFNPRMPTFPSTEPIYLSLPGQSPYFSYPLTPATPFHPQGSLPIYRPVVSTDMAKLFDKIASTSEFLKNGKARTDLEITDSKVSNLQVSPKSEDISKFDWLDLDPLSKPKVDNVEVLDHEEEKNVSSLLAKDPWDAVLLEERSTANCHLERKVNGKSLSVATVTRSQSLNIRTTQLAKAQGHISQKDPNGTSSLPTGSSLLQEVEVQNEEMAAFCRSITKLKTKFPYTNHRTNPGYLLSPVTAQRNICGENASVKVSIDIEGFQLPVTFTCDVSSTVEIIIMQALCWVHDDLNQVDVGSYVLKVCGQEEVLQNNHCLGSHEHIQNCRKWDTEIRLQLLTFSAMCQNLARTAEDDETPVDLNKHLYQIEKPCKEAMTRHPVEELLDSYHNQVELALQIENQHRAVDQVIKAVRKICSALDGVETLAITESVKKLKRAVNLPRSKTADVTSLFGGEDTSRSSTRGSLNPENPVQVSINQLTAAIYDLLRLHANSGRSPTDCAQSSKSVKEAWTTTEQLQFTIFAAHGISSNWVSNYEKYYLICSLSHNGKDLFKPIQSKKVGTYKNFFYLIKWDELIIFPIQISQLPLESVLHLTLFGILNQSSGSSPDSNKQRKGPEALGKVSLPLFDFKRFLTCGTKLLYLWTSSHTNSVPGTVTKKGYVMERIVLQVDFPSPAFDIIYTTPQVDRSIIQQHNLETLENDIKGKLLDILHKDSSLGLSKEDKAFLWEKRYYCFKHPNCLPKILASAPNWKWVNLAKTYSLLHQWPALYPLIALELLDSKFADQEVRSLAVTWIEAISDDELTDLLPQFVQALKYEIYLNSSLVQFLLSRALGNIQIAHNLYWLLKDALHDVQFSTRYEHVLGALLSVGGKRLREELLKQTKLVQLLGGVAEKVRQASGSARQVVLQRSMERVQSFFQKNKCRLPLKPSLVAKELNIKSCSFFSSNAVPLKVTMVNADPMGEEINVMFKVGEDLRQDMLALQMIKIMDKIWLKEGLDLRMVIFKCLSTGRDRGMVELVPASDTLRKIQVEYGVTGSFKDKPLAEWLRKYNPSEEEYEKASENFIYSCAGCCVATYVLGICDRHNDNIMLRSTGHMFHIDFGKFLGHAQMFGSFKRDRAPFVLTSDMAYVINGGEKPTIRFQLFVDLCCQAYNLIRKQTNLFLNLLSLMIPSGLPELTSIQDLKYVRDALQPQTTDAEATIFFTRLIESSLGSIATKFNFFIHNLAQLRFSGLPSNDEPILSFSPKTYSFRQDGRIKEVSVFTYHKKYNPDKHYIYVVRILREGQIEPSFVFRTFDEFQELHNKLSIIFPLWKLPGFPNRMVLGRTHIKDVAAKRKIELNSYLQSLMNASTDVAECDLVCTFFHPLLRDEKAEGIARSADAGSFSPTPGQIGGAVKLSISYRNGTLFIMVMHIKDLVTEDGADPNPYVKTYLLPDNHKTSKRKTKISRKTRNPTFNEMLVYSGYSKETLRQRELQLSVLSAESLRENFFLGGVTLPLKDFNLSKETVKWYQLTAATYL
Sequence of UniProt P0A7A9 (whole entry, looked up): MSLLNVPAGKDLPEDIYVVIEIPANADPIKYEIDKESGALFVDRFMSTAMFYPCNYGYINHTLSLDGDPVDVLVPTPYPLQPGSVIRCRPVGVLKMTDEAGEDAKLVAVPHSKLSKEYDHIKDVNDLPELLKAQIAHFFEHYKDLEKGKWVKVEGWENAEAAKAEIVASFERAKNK
Sequence of UniProt Q8N3A8 (whole entry, looked up): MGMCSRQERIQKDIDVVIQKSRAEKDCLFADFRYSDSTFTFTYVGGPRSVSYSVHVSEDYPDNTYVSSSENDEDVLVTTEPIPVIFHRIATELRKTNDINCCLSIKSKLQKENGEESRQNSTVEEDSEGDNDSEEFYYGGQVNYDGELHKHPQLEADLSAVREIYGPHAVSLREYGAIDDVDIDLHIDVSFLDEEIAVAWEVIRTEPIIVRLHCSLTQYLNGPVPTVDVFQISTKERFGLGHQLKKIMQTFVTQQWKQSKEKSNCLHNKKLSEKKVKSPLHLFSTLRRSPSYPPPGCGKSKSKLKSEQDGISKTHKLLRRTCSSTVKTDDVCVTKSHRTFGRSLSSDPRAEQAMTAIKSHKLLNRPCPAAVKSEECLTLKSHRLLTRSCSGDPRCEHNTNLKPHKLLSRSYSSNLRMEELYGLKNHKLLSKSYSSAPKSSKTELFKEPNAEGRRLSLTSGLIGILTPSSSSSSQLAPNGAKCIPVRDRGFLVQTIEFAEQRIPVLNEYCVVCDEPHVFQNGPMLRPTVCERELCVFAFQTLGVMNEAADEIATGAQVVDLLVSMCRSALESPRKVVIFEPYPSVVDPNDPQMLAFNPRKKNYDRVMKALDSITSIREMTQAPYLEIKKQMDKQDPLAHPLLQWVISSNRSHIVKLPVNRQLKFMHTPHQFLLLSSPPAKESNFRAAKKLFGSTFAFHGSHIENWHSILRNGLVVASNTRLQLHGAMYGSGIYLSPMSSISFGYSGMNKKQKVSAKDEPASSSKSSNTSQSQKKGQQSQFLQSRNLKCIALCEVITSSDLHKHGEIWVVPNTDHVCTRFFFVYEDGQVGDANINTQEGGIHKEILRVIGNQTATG

Cc1nc2c(F)cc(-c3nc(Nc4ccc(CNC(=O)CCCCCCC(=O)NO)cc4)ncc3F)cc2n1C(C)C  inhibition (Phosphatidylinositol 4,5-bisphosphate 3-kinase catalytic subunit alpha isoform, with p85 alpha (Pik3ca, Mus musculus, UniProt P42337); enzyme activity; 1 µM, p110α/p85α)(m mouse): 18%
COc1ccc2c(OC)ccc(C=NOCc3ccc(-c4nc5cc(-c6ccccc6)ccn5c4Nc4ccc(C(=O)O)cc4)cc3)c2c1 (mixture of isomers)  inhibition (TDP1; enzyme activity, inhibitor; 100 µM, unpurified compound): 18.4%
C[Si](C)(C)C[C@H](CN)CC(=O)O  inhibition (CCKAR; ligand displacement, radioligand; 250 µM): -1%
Cn1ccc2cc(-n3c(=O)[nH]c4sc5c(c4c3=O)CCCC5)ccc21  inhibition (IL1R1 (Homo sapiens, UniProt P14778); cell-free assay; 10 µM): -2%
Cc1c(C)c(C)c(C[N+]2(C)CCN(CCCN3c4ccccc4Sc4ccc(Cl)cc43)CC2)c(C)c1C  inhibition (Uncharacterized protein; enzyme activity, inhibitor, coupled colorimetric; 30 µM, with: E. coli pyrophosphatase coupling): 45%
CC(C)Cn1c(SCC(=O)N2CCc3ccccc3C2)nc2cc(Cl)ccc2c1=O  inhibition (sigma receptor 1; radioligand binding; 10 µM): 7%
O=C(O)c1ccc(Nc2c(-c3ccccc3)nc3ccc(CON=Cc4cn(Cc5ccc(Cl)cc5)nn4)cn23)cc1 (mixture of isomers)  inhibition (TDP1; enzyme activity, inhibitor; 100 µM, unpurified compound): 15.6%
COc1ccc(OC)c(C2=Nn3c(nnc3C3CCCCC3)SC2)c1  inhibition (Uncharacterized protein; enzyme activity, inhibitor, coupled colorimetric; 30 µM, with: E. coli pyrophosphatase coupling): 37.4%
CCC(=O)N(C)c1ccc(Cl)c(Cl)c1  inhibition (Nociceptin receptor (OPRL1, Homo sapiens, UniProt P41146); ligand displacement, radioligand; 10 µM): < 10%
CO[C@@H](C)c1c(NC(=O)Nc2cnc(-n3nccn3)c(C(F)(F)F)c2)cnc2sc(C)nc12  inhibition (CCKAR; ligand displacement, radioligand; 10 µM): -0.5%
C[N+](C)(C/C=C/CN1C(=O)c2ccccc2C1=O)CCCN1c2ccccc2CCc2ccc(Cl)cc21  inhibition (Uncharacterized protein; enzyme activity, inhibitor, coupled colorimetric; 30 µM, with: E. coli pyrophosphatase coupling): 38.6%
COCC(=O)N1CCc2cc(-c3csc(NC(=O)c4cc(OC)cc(OC)c4)n3)ccc21  inhibition (EDNRB (Homo sapiens, UniProt P24530); ligand displacement, radioligand; 10 µM): 5%
O=C(O)c1ccc(Nc2c(-c3ccccc3)nc3ccc(CON=Cc4ccccc4OCc4cn5cccnc5n4)cn23)cc1  inhibition (TDP1; enzyme activity, inhibitor; 100 µM, unpurified compound): 9.7%
CC1=NN(c2cccc(F)c2)C(=O)/C1=N\Nc1ccc(S(N)(=O)=O)cc1  inhibition (bovine α-glucosidase; enzyme activity, inhibitor, glucose oxidase; 200 µg/mL, with: maltose): 37.7%
CC(=O)c1cnc(N)nc1N1CC[C@H]1c1nn2ccc(Cl)c2c(=O)n1-c1ccccc1  inhibition (TACR3 (Homo sapiens, UniProt P29371); ligand displacement, radioligand; 10 µM): 10%
O=C(CN1CCO[C@@H](COc2cccc(Cl)c2)C1)N1CCc2ccccc21  inhibition (HTR4 (Homo sapiens, UniProt Q13639); radioligand binding; concentration not given): 7.6%
CC(C)C(C)NC(=O)COC(=O)c1cc2c(s1)CCC2 (stereo not shown)  inhibition (Protein tyrosine phosphatase type IVA 3, with CNNM4 CBS domain (PTP4A3, Homo sapiens, UniProt O75365); protein-protein interaction, inhibitor, HTRF; 10 µM): 74.9 ± 3.9%
C[Si]1(C[C@H](CN)CC(=O)O)CCCC1  inhibition (CCKAR; ligand displacement, radioligand; 70 µM): -3%
CC(=O)NC1C(=O)N(c2ccccc2)N=C1C (stereo not shown)  inhibition (Uncharacterized protein; enzyme activity, inhibitor, coupled colorimetric; 30 µM, with: E. coli pyrophosphatase coupling): 49.2%
Brc1ccccc1-c1nnc(CSc2nnnn2-c2ccccc2)o1  inhibition (benzodiazepine site rat; binding; rat brain; 10 µM): 35%
CC(=O)C1=C(c2ccc(F)cc2)N(C(C)=O)n2cnnc2S1  inhibition (ppa (Escherichia coli, UniProt P0A7A9); inhibitor, counter-screen, coupling enzyme alone; 30 µM): 34.2%
CN1CCN(Cc2ccc(-c3ccc(CO[C@H]4CCC[C@@H]4NC(=O)c4cc(-c5cnn(C)c5)cnc4N)cc3)cc2)CC1  inhibition (PI4K2B; enzyme activity, inhibitor; 0.1 µM): 0%
CS(=O)(=O)Nc1cccc(C=NOCc2ccc3nc(-c4ccccc4)c(Nc4ccc(C(=O)O)cc4)n3c2)c1  inhibition (TDP1; enzyme activity, inhibitor; 100 µM, unpurified compound): 7.1%
C=CC(=O)N1Cc2nc(-c3cc(-c4cc(Cl)cnc4Cl)c(F)cc3F)n(-c3ccncn3)c2C1  inhibition (PI4K2B; cell-free assay, inhibitor; 1 µM): -13.9%
CC1=NN(c2ccccc2F)C(=O)/C1=N\Nc1ccc(S(N)(=O)=O)cc1  inhibition (bovine α-glucosidase; enzyme activity, inhibitor, glucose oxidase; 10 µg/mL, with: maltose): 32.817 ± 0.000577%
COc1cccc(NC(=O)N2CCOc3ccccc32)c1  inhibition (Uncharacterized protein; enzyme activity, inhibitor, coupled colorimetric; 30 µM, with: E. coli pyrophosphatase coupling): 30.4%
CN(Cc1ccc(/C=C/C(=O)NO)cc1)CC12CC3CC(CC(C3)C1)C2  inhibition (MMP-2; enzyme activity; 0.05 µM): 5%
CS(=O)(=O)C(C=NOCc1ccc(-c2nc3cc(-c4ccccc4)ccn3c2Nc2ccc(C(=O)O)cc2)cc1)c1nc2ccccc2[nH]1 (stereo not shown)  inhibition (TDP1; enzyme activity, inhibitor; 100 µM, unpurified compound): 73.3%
O=C1c2sc(-c3ccc(N4CCC(F)C4)nc3F)nc2CCN1c1cccnc1 (stereo not shown)  inhibition (L-type Ca2+ channel, phenylalkylamine (verapamil) site; radioligand binding, BioPrint binding panel; 1 µM, with: antagonist radioligand): 0%
Oc1ccc(C2NCCc3cc(O)c(O)cc32)cc1 (stereo not shown)  inhibition (tyrosinase; enzyme activity, inhibitor; 100 µM, with: levodopa): 40.5 ± 2.43%
Cc1nc2c(C)cccn2c1C=NOCc1ccc(-c2nc3cc(-c4ccccc4)ccn3c2Nc2ccc(C(=O)O)cc2)cc1  inhibition (TDP1; enzyme activity, inhibitor; 100 µM, unpurified compound): 83.2%
CCOC(=O)CCCCC1NCCc2cc(O)c(O)cc21 (stereo not shown)  inhibition (tyrosinase; enzyme activity, inhibitor; 100 µM, with: levodopa): -17.2 ± 0.64%
CN(C)c1cc(N)c2cc(Cl)ccc2n1  inhibition (Uncharacterized protein; enzyme activity, inhibitor, coupled colorimetric; 30 µM, with: E. coli pyrophosphatase coupling): 38.6%
CN(C)c1nc(NCc2ccc(Oc3ccccc3)cc2)c(/N=N/c2ccc(Cl)cc2)c(N(C)C)n1  inhibition (OfChi-h; enzyme activity, inhibitor, fluorescence; 1 µM): 92%
COc1cc(-n2cc3cc(F)cc(C(N)=O)c3n2)cc(Cl)c1C1CC(O)(CCO)Cc2ccccc21 (stereo not shown)  inhibition (Protein mono-ADP-ribosyltransferase PARP8 (Homo sapiens, UniProt Q8N3A8); enzyme activity, inhibitor; 10 µM): 1.09%
CN1CC[C@@H](COc2cnc(C#N)cc2-c2ccn3nc(NC(=O)C4CC4)cc3c2)C1  inhibition (PIK3C2A (Homo sapiens, UniProt O00443); enzyme activity, inhibitor; 1 µM): -4%
CC(=O)C12NC(C)(C)CC1(C)C(=O)C1=C2c2c(c3c4n2C(C)(C)CC2=C4C4(CC(C)(C)NC(C)(C4)C2=O)CC3(C)C)C(=O)C(C)(C)N1 (single isomer, unassigned; (-))  inhibition (CACNA1G (Homo sapiens, UniProt O43497); calcium current, antagonist, whole-cell patch clamp; HEK293T cells; 10 µM): 3.81 ± 0.03%
C/C=C/C(=O)Nc1ccc2nc(NCCCCCN(C)C)nc(NCCCCCCN(C)C)c2c1  inhibition (PRMT8 (Homo sapiens, UniProt Q9NR22); enzyme activity, inhibitor, radiometric; 10 µM): 37%
Cn1c(C=NOCc2ccc(-c3nc4cc(-c5ccccc5)ccn4c3Nc3ccc(C(=O)O)cc3)cc2)ccc1-c1cccc([N+](=O)[O-])c1 (mixture of isomers)  inhibition (TDP1; enzyme activity, inhibitor; 100 µM, unpurified compound): 87.1%
O=C1c2sc(-c3ccc(N4CCC(CO)CC4)nc3F)nc2CCN1c1cccnc1  inhibition (PTGIR (Homo sapiens, UniProt P43119); ligand displacement, radioligand; 1 µM): -7%
COC(=O)c1ccc(-c2cccc(C=NOCc3ccc(-c4nc5cc(-c6ccccc6)ccn5c4Nc4ccc(C(=O)O)cc4)cc3)n2)cc1  inhibition (TDP1; enzyme activity, inhibitor; 100 µM, unpurified compound): 52%
CC(C)(C)OC(=O)C[N+](C)(C)CCCN1c2ccccc2CCc2ccc(Cl)cc21  inhibition (Uncharacterized protein; enzyme activity, inhibitor, coupled colorimetric; 30 µM, with: E. coli pyrophosphatase coupling): 33.2%
CN(C)c1nc(NCc2ccc(F)cc2F)c(/N=N/c2ccc(Cl)cc2)c(N(C)C)n1  inhibition (OfChi-h; enzyme activity, inhibitor, fluorescence; 1 µM): 90.1%

For quick reference, copied from above:
CS(=O)(=O)Nc1cccc(C=NOCc2ccc3nc(-c4ccccc4)c(Nc4ccc(C(=O)O)cc4)n3c2)c1  inhibition (TDP1; enzyme activity, inhibitor; 100 µM, unpurified compound): 7.1%
C=CC(=O)N1Cc2nc(-c3cc(-c4cc(Cl)cnc4Cl)c(F)cc3F)n(-c3ccncn3)c2C1  inhibition (PI4K2B; cell-free assay, inhibitor; 1 µM): -13.9%
CC1=NN(c2ccccc2F)C(=O)/C1=N\Nc1ccc(S(N)(=O)=O)cc1  inhibition (bovine α-glucosidase; enzyme activity, inhibitor, glucose oxidase; 10 µg/mL, with: maltose): 32.817 ± 0.000577%
COc1cccc(NC(=O)N2CCOc3ccccc32)c1  inhibition (Uncharacterized protein; enzyme activity, inhibitor, coupled colorimetric; 30 µM, with: E. coli pyrophosphatase coupling): 30.4%
